Measurements collected from several papers.
Parts stem from different laboratories: compare values within a part only. Changes are numbered by the printed parent chain.

Set 1 — target: CCNE1, cyclin fold, Cln2 fusion (human); technique: yeast growth competition, sequencing; matrix: yeast; notes: weak parent motif; baseline: not given; direction: higher = stronger binding
Parent: CUX1 docking peptide (human); SRIRRELFIEEIQ
| Variant | normalised enrichment score |
| --- | --- |
| SRIRAEAFIEEIQ [R5A L7A] | -0.179 |
| SRIARELFIEEIQ [R4A] | 0.282 |
| SRIRRELLIEEIQ [F8L] | 0.33 |
| SRIRKELFIEEIQ [R5K] | 0.624 |
| SRIRRELFAEEIQ [I9A] | -0.00301 |
| ARIRRELFIEEIQ [S1A] | 1.56 |
| SRIRAELFIEEIQ [R5A] | -0.278 |
| SRIRREAFIEEIQ [L7A] | -0.242 |
| SRIRRELFIEAIQ [E11A] | 0.884 |
| SRIRRELFIEEAQ [I12A] | -0.383 |

Set 2 — technique: protein binding microarray; form: double-stranded DNA, one strand shown; matrix: in vitro; tested at: not given; baseline: not given; direction: higher = stronger binding
Target: Histone acetyltransferase KAT6A, both winged helices, GST fusion (KAT6A, Homo sapiens, UniProt Q92794, residues 1-181)
Notes: 8-mer, flanks averaged, mean of 2 arrays, mostly near background
Target sequence (chain): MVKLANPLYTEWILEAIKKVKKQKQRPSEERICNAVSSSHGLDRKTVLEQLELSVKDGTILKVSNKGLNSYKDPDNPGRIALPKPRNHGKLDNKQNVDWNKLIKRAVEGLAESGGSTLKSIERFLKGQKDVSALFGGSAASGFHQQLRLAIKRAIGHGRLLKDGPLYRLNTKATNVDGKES
| Strand | E-score |
| --- | --- |
| GTACCGGA | 0.17 |
| CACCAAGG | -0.107 |
| CCCGAAAC | 0.0327 |
| GCCGCGAC | 0.253 |
| ATGCCTTG | -0.172 |
| AACGACCG | 0.0427 |
| ACAGGTGA | -0.166 |
| ACGGGAGG | 0.145 |
| AGTGATTA | 0.00781 |
| CGCTGGCA | 0.0662 |
| AGATCGAG | -0.154 |
| CCGGGTCA | 0.169 |
| GGGACGTA | 0.0499 |
| ACGCGCAA | 0.361 |
| AGTACGAG | -0.0634 |
| CATTATGA | -0.134 |
| ATACGATA | -0.0436 |
| AAGCGGGG | 0.111 |

Set 3 — technique: DHFR PCA, deep sequencing; matrix: yeast; together with: (+)-ABA 200 µM; baseline: wild-type fitted maximum; direction: higher = stronger binding
Target: ABI1, truncated, D143A, DHFR fusion (Arabidopsis thaliana)
Notes: methotrexate growth selection, single substitutions
Parent: PYL1, truncated, DHFR fusion (Arabidopsis thaliana); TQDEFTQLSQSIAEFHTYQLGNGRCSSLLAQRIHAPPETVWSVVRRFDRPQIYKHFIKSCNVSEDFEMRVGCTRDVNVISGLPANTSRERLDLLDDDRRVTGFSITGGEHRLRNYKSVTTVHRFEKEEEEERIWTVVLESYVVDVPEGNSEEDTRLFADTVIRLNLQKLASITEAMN; partner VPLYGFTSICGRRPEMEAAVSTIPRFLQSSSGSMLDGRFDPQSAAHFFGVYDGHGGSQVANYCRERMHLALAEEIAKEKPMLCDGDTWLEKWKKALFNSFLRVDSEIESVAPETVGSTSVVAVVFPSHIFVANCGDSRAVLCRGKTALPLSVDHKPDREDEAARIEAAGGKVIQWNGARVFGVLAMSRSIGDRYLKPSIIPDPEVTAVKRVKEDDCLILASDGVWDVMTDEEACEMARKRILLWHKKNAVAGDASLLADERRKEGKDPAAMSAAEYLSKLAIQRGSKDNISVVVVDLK
| Variant | relative binding score [%] |
| --- | --- |
| T86I | 85.3 |
| Y141A | 1.37 |
| R69W | 66.5 |
| E64F | 91.3 |
| Y18I | 84.4 |
| H122C | 56.1 |
| Q10T | 98.6 |
| M176C | 93.2 |
| I79T | 97.8 |
| K116G | 52.6 |
| S26E | 68.4 |
| V137N | -22.2 |
| V118P | 7.99 |
| M68T | 95.4 |
| F47R | -5.01 |
| F5V | 96.4 |
| S171W | 88.9 |
| R132Y | 95.4 |
| E129C | 106 |

Set 4 — technique: RNA Bind-n-Seq; form: RNA; matrix: in vitro; tested at: 100 nM; baseline: input RNA pool; direction: higher = stronger binding
Target: RING finger protein unkempt homolog, zinc fingers 1-6, SBP tag (UNK, Homo sapiens, UniProt Q9C0B0, residues 30-357)
UniProt Q9C0B0, sequence (30-357, looked up): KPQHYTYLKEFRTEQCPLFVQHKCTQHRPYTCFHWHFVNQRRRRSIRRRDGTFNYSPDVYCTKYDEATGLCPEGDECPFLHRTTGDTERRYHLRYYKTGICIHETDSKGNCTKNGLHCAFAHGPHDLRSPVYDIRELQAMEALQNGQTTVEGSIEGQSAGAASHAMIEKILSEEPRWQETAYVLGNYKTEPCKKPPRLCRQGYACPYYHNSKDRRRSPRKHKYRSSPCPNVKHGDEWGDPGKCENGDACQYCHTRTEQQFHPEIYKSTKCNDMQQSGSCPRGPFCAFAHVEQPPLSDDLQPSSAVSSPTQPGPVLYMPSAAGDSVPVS
Notes: RNA with constant flanks, vertebrate orthologous sites, ends assumed
All sequences stand within: GGGAGUUCUACAGUCCGACGAUC … CAACAGAGGAUUGAGCAUCA
| Strand | bound/input enrichment [ratio] |
| --- | --- |
| GUGACUUUGGAAGUCCUCACUGCCGUGGUGUGGAGACUGUGUAGUCCCGACGUUCCGGGUUUGUCUGUCUGUCGUGGACUUGGGAGUUUUGCUGCAGUUAUGCUUCGCCAGAUCAUCGGU | 0.354 |
| AUUCAAGCCUGUGGUGCCCUGGCCUCACGUCGAAGGGAUAGAAGUGGACUUAGAGUCGAUCCGAAGAAAGAACAAGGCCAGAAAUGAGCAAGAGCGCCACGCCGGCGGAGACGAGCAGAG | 0.229 |
| AUAAAAUGUGUAUCAAAUACUGGAUAUAAAAUUAAAUCAUCAUUUAGAAUAAGGUUAAUUUGUUAAGAUUAAGCUACAAAUAGGUUUCCUUAAACCAGAGAUGCACUGCCCUUGUCAGAA | 0.279 |
| AGCAACUCAAGGAUUCAGGACUGGUUUUACAAAUGUCCCAAGCAGAUAUGGAACUAGCACUCGAGGUCAACCCCAGCCAUAAUAAACUCUAUUAUGCGUUAUUUAUUGUACAUAAGGGUA | 0.115 |
| AAAGGGUUUGUAAAGCAUUUUGCCAUUUGGAUGCGGUCUGCUGGCCCCUCCACAAUACCACGUUAAUAUGUUUUUUUUUUAAGAUGUUAGGAUCUAACUGAAUUUACUAAAAUGUAAUUA | 0.555 |
| CCGAAAGGCCAAAUUCCUUCCUCCCUUCUACUGCUUCUCCCAACUGGAAGCACAGAAAACUAGAACUUCAUUUAUUUUGUUUUUUAAAAAGAUACACUGAUUUAACAUCCGAUAGGAAUG | 1.68 |
| GUGUAGAAAAAACUUUUCAUUGACACCCUCCCAUAUUAUGAAAUUCCCUAGAAAUUUGUUUGAAAUCUUAAUUUUUCUAAUCCAUGCUCACUGUACUAGUCAUUUUUAGCCCAUAAUCGA | 2.3 |
| AGUCGAUGGAGUUACACAACACUUAAGCAGCAGGCGGAAGGCUAUCCCAGUGCGUGUUGGUAGUGACCGAGAGAGUUAUAGCUGGUCUUGCCUUGUAUUUUACCCCUUGGUUCAGGUCUC | 0.376 |
| UCUAUUACCCCCUUACUUAAAAUUACCCAAAAAAAUGAUGGCUGUUUGUUUGUUUUCAAAAUGGCUUCUCCUAUUUUUUUAUUCGUCUUGCAAAUCUCAGUUCUGUGUUGUUUGUUCAUA | 0.528 |
| CCUUUAAAUCCCAUAUCUUCCGUUUCAUAGUGCAGAAAUAUUCUUUUCAAUUGUUAUUAGUGGACUUAUUUUAAUUUUAGAGAAACUUCCAGUACAAAUACUGUGAGCUGACAUGGAAAA | 1.56 |
| UUCAGUCACAACUGACUGGUUCACAGCAUUCCUUACAUAGUUAUCUAUCAAAUACAAGUGUAGUUAGCUUUCAGGAAACAACCAGGCAGUCAUCCUUAACCUGUAGCCCAAUUGGAGAUU | 1.04 |

Set 5 — technique: protein-binding microarray; form: double-stranded DNA, one strand shown; matrix: in vitro; tested at: 2540 nM top; notes: 60-bp whole probe; together with: salmon DNA 0.4 mg/ml; baseline: random background probes; direction: higher = stronger binding; all sequences stand within: GCCTAGCAC … GTCTTGATTCGCTTGACGCTGCTG
Target: Interferon regulatory factor 3, full length, phosphomimetic (IRF3, Homo sapiens, UniProt Q14653, residues 1-427, S386D/S396D/S398D/S402D/T404D/S405D)
Construct (chain): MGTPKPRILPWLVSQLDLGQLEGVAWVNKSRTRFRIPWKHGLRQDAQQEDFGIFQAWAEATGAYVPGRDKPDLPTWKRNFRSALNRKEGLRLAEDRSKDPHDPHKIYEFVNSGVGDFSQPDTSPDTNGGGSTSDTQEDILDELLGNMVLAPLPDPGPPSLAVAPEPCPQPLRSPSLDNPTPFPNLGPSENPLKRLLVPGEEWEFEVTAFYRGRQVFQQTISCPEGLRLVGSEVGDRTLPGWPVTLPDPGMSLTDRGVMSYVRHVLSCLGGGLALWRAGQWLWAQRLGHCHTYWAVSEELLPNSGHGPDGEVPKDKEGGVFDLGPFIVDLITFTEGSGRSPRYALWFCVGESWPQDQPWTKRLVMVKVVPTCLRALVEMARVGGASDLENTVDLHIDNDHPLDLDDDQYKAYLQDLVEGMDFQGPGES
| Strand | fitted relative affinity |
| --- | --- |
| TTAGGTATCGGGTTTCGGCTAGTGCTA | 2.42 z-score |
| TTAGGTTTGGGGTATCGGTTAGTGCTA | 0.18 z-score |
| TGAGATATCAGTTTCGATTAGTGCTAG | 4.7 z-score |
| TACAGCAGGGAGGGAGGCACGTGCTAG | -0.91 z-score |
| TCATACATGGGTATAGAACTGTGCTAG | -0.215 z-score |
| GACGTTATCCTACTGCTGACGTGCTAG | 1.27 z-score |
| TTAGGTTTCGGGTATCGTTTAGTGCTA | 4.31 z-score |
| TTATGTATCGGTTTCGGTTAGTGCTAG | 8.43 z-score |
| TTAGGTCTCCTTTTCCTTGAGTGCTAG | 4.76 z-score |
| TTTGGAGTCATTCTCAACCCGTGCTAG | 0.787 z-score |
| GACGATTTCAGTCTCGACACGTGCTAG | 2.48 z-score |
| TTAGATATCGGGTTTCGAGTAGTGCTA | 0.74 z-score |
| TTACGTTTCGACACTGGGTTAGTGCTA | 2.39 z-score |
| TCACATGTGCTGTCTCAGACTGTGCTA | 0.335 z-score |
| TTAGAACTGAGAGTGGATTAGTGCTAG | -0.505 z-score |
| TTAGATTTCGGTATCGATTAGTGCTAG | 4.94 z-score |
| CACGGTTTCCTTATCCTGACGTGCTAG | 7.1 z-score |
| GACGCTTTCCTTTCCCTGACGTGCTAG | 7.81 z-score |
| CTAGTTGTACTTTCTATCTCTGTGCTA | 3.4 z-score |
| GACGGACTGGACTTTCGGGATGTGCTA | 0.0852 z-score |
| CTCTCCATGTGTTTAAAAAGGTGCTAG | 0.537 z-score |

Set 6 — technique: universal PBM; form: double-stranded DNA, one strand shown; matrix: in vitro; tested at: 600 nM; direction: higher = stronger binding
Target: Sal-like protein 4, full length isoform A (SALL4, Homo sapiens, UniProt Q9UJQ4, residues 1-1053)
UniProt Q9UJQ4, sequence (whole entry, looked up): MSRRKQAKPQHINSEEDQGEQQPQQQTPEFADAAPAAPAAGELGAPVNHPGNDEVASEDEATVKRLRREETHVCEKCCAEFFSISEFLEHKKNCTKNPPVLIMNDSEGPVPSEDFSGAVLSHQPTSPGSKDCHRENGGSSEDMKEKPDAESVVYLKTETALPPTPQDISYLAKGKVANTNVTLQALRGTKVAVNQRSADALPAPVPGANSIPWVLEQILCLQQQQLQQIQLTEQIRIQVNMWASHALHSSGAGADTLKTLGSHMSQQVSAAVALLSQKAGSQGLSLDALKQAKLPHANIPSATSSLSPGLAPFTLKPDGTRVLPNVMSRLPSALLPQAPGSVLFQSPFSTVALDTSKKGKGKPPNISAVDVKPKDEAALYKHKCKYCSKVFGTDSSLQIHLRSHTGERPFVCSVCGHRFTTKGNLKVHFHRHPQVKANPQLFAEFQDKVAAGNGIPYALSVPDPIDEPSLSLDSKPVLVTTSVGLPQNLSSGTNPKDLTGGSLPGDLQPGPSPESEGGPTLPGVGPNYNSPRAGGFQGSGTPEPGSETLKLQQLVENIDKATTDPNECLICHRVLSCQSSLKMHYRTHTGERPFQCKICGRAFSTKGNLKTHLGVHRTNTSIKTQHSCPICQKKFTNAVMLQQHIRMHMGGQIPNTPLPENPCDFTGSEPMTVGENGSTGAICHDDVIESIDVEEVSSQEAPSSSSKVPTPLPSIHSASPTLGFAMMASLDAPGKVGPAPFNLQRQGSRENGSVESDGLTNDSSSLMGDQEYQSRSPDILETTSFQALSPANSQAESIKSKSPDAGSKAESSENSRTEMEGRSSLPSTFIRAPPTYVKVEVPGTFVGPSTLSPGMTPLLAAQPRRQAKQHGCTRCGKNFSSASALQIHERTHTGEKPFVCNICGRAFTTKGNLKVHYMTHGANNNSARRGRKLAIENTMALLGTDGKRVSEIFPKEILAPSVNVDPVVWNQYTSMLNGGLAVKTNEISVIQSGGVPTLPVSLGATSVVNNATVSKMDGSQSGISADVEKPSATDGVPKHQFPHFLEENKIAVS
Notes: 8-mer, flanks averaged, mean of replicates
| Strand | E-score |
| --- | --- |
| CGGTGGAA | -0.21 |
| ACAATTTA | 0.287 |
| ATTTCGGC | 0.069 |
| CCGGTTTC | -0.279 |
| AGCGGTAT | 0.174 |
| AAACCAAC | 0.0696 |
| CGGGTGAA | -0.141 |
| AGATCTGG | -0.183 |
| ACATTCGA | 0.112 |
| AGAAGCGA | -0.0123 |
| AAACCGGG | -0.243 |
| AGCTAATC | 0.145 |
| CGAGGGGA | -0.239 |
| GCAGCTCA | -0.205 |
| GGAGCCGA | -0.373 |
| CCTATTAG | 0.135 |
| CAATAGAG | 0.127 |
| ATGGGGAC | -0.143 |

Some of these lines once more (set 2):
| Strand | E-score |
| --- | --- |
| ATGCCTTG | -0.172 |
| AACGACCG | 0.0427 |
| AGTGATTA | 0.00781 |
| ATACGATA | -0.0436 |
| CATTATGA | -0.134 |
| ACGCGCAA | 0.361 |
| GGGACGTA | 0.0499 |
| GCCGCGAC | 0.253 |
| GTACCGGA | 0.17 |
| CCGGGTCA | 0.169 |
| ACGGGAGG | 0.145 |
| CACCAAGG | -0.107 |
